# Experimental data gathered from unrelated publications.
# Each numbered part is a random draw from the data of one study; scales do not carry over between parts. Changes are numbered by the printed parent chain.

# Series 1
# Target: Centromere-binding protein 1, full length, His-tagged (CBF1, Saccharomyces cerevisiae, UniProt P17106, residues 1-351)
# UniProt P17106, sequence (whole entry, looked up): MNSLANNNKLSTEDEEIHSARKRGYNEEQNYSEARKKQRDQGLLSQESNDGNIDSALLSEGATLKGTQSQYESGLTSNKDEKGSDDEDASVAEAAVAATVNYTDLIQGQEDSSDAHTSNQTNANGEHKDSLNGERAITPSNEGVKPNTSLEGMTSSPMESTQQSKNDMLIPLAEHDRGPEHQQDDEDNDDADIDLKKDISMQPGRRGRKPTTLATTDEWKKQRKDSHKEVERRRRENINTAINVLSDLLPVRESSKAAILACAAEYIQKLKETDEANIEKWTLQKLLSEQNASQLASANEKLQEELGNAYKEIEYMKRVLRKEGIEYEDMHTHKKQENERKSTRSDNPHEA
# Method: competition protein-binding microarray
# Form: double-stranded DNA, one strand shown
# Matrix: in vitro
# Tested at: 2 µM
# Setting: whole 60-bp probe, lowest competitor level
# With: Pho4 competitor, 0.05 µM
# Reading: higher = stronger binding
Strand,fluorescence intensity [a.u.]
CGCCCAAGGGACAATCACATGCAGAGAAGTTTACGAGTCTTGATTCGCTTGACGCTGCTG,269
AACTGGTGGAGGTGGAACGTGTCCAGGCAGTGCAGGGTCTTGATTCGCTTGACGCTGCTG,77
TTTGGAAATGCTCACCACGGGAATATGCAAAAAAAAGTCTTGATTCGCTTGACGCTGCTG,111
ATGGTTGTCTATGCTTCCGTGGGTATCACCAGATTAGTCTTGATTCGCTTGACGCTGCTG,67.9
TGTGGCTGCGTTCGTCACGGGTCCACCTCAGGCAGAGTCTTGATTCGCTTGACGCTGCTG,253
TGCGAAAAGATTTCACACGTCAGTAAATCCGCGCAAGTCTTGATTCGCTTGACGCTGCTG,72.3
CGTCCTAGTGATTGGGTCGTGGGTGCCATGAGGAAGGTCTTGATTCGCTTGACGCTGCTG,76.3
TAACTAATAAGTAGTCACCTGACTGTGATATAAATTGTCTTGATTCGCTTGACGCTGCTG,3650

# Series 2
# Target: TEF, bZIP domain (human)
# Method: DHFR protein complementation
# Matrix: yeast
# Setting: single substitutions, most at no-binding floor
# Baseline: wild-type JUN-FOS pair
# Reading: higher = stronger binding
# Starting sequence: JUN, bZIP domain (human); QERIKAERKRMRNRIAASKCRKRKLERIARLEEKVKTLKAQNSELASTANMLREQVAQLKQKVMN; partner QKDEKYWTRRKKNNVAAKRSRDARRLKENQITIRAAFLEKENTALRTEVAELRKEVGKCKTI
Substitution,binding fitness [natural log]
N42F,-1.57
M51S,-1.3
A29Y,-1.04
K39C,-1.62
A49Y,-1.5
E32M,-1.41
K39Q,-1.03
L31K,-1.55

# Further values, each from its own experiment
Substance,tested on,test,system,setting,endpoint,result
"KIAA0513 (Homo sapiens, UniProt O60268)","MTHFD1 (Homo sapiens, UniProt P11586)",cross-linking MS,cell fractions,with: DSSO,cross-linked residues,K253 to K297
MHGHGKHIL,"HLA class I histocompatibility antigen, A alpha chain, allele A*80:01 (Homo sapiens, UniProt P04439)",peptide-MHC binding,peptide,concentration not given,binding,inactive
"SARNP (Homo sapiens, UniProt P82979)","CHST4 (Homo sapiens, UniProt Q8NCG5)",cross-linking MS,cell fractions,with: DSSO,cross-linked residues,K31 to K235
"NPM1 (Homo sapiens, UniProt P06748)","ANK3 (Homo sapiens, UniProt Q12955)",cross-linking MS,cell fractions,with: DSSO,cross-linked residues,K250 to T2038
"NOP14 (Homo sapiens, UniProt P78316)","EMG1 (Homo sapiens, UniProt Q92979)",cross-linking MS,,hits only,interaction screen,cross-linked

# A few entries again (series 2):
Substitution,binding fitness [natural log]
M51S,-1.3
A29Y,-1.04
K39C,-1.62
